Measurements from different studies.
Lines come from different studies, so protocols differ. Values joined by “and” are separate records of one study, mostly repeats; a detail may differ. ± marks the error that the study gave.

SMILES	test	test system	setting	how to read	measurement	result
Cc1ccccc1-c1ccc(-c2nc(-c3ccc(CN(C)CCCC(=O)O)c([18F])c3)no2)cc1C(F)(F)F		rat, bone	30 min		tracer uptake	0.11 %ID/g
CCCC[C@H]1C(=O)N(C)[C@@H](CCCC)C(=O)N[C@@H](CCCNC(=O)CN2CCN(CC(=O)O)CCN(CC(=O)O)CCN(CC(=O)O)CC2)C(=O)N[C@H](C(=O)NCC(N)=O)CSCC(=O)N[C@@H](Cc2ccc(O)cc2)C(=O)N(C)[C@@H](C)C(=O)N[C@@H](CC(N)=O)C(=O)N2CCC[C@H]2C(=O)N[C@@H](Cc2c[nH]cn2)C(=O)N[C@@H](CC(C)C)C(=O)N(C)CC(=O)N[C@@H](Cc2c[nH]c3ccccc23)C(=O)N[C@@H](CO)C(=O)N[C@@H](Cc2c[nH]c3ccccc23)C(=O)N1C [gallium-68 labelled]		NOD/SCID mice, CHO-hPD-L1 xenograft, tumour over blood	iv, dose not given, 10 min	baseline: tumour over blood	tissue-to-tissue ratio	0.31 ± 0.06
CC[C@H](C)[C@H](NC(=O)[C@H](C)NC(=O)CNC(=O)[C@H](CCCCN)NC(=O)[C@@H](NC(=O)[C@H](CC(C)C)NC(=O)[C@H](C)NC(=O)CNC(=O)[C@H](CC(C)C)NC(=O)[C@@H](N)Cc1ccccc1)[C@@H](C)CC)C(=O)N[C@@H](Cc1c[nH]cn1)C(=O)NCC(=O)NCC(=O)N[C@@H](CCCNC(=N)N)C(=O)N[C@@H](Cc1ccccc1)C(=O)N[C@H](C(=O)N[C@@H](Cc1c[nH]cn1)C(=O)NCC(=O)N[C@@H](CCSC)C(=O)N[C@H](C(=O)N[C@@H](CCC(N)=O)C(=O)N[C@@H](CC(N)=O)C(=O)N[C@@H](Cc1c[nH]cn1)C(=O)N[C@@H](Cc1c[nH]cn1)C(N)=O)[C@@H](C)CC)[C@@H](C)CC		zebrafish embryos 28 hpf, E3 medium	1 h		acute toxic concentration	25 µM
CCCCCCCCCCCCCCCC(=O)NCCCC[C@H](NC(=O)[C@H](CCC(=O)O)NC(=O)[C@H](Cc1ccc(O)cc1)NC(=O)[C@H](CCC(=O)O)NC(=O)COCC(=O)NCCCOCCOCCOCCCNC(=O)[C@H](Cc1ccccc1)NC(=O)[C@H](CC(N)=O)NC(=O)[C@H](Cc1c[nH]cn1)NC(=O)[C@@H](NC(=O)[C@H](CC(=O)O)NC(=O)[C@H](CCC(N)=O)NC(=O)[C@H](CC(C)C)NC(=O)[C@H](CCCCN)NC(=O)[C@H](CCCCN)NC(=O)[C@H](CCCNC(=N)N)NC(=O)[C@H](CC(C)C)NC(=O)[C@H](Cc1c[nH]c2ccccc12)NC(=O)[C@H](CCC(=O)O)NC(=O)[C@@H](NC(=O)[C@H](CCCNC(=N)N)NC(=O)[C@H](CCC(=O)O)NC(=O)[C@H](CCSC)NC(=O)[C@H](CO)NC(=O)[C@H](CC(N)=O)NC(=O)[C@H](CC(C)C)NC(=O)[C@H](Cc1c[nH]cn1)NC(=O)[C@H](CCCCN)NC(=O)CNC(=O)[C@H](CC(C)C)NC(=O)[C@H](CC(N)=O)NC(=O)[C@H](Cc1c[nH]cn1)NC(=O)[C@H](CCSC)NC(=O)[C@H](CC(C)C)NC(=O)[C@H](CCC(N)=O)NC(=O)[C@@H](NC(=O)[C@H](CCC(=O)O)NC(=O)[C@H](CO)NC(=O)[C@@H](NC(=O)[C@@H](N)CO)C(C)C)[C@@H](C)CC)C(C)C)C(C)C)C(=O)N[C@@H](CCC(=O)O)C(=O)N[C@@H](Cc1ccc(O)cc1)C(=O)N[C@@H](CCC(=O)O)C(N)=O	ELISA	female CD-1 mice, blood plasma	subcutaneous, 10 nmol/kg, 24 h		plasma concentration	0.607 nM
CC[C@H](C)[C@H](NC(=O)[C@@H](NC(=O)c1cccc(Cl)c1Cl)C(C)(C)C)C(=O)N[C@H](C(=O)N[C@H](C(=O)N[C@H](C(=O)N[C@@H](CCC(N)=O)C(=O)N[C@@H](Cc1c[nH]cn1)C(=O)N[C@H](CC(C)C)C(=O)N[C@@H](CO)C(=O)NCCC(=O)N[C@@H](CCCCNC(=O)CC[C@@H]1NC(=O)[C@@H](CCCNC(=N)N)NC(=O)[C@H](CCCNC(=N)N)NC(=O)[C@@H](CCCNC(=N)N)NC(=O)[C@H](CCCNC(=N)N)NC(=O)[C@H](Cc2ccc3ccccc3c2)NC(=O)[C@@H](Cc2ccccc2)NC1=O)C(N)=O)[C@@H](C)O)[C@@H](C)CC)C(C)(C)C		human serum 25%	5 µM, 24 h, 37 °C		degradation	< 10%
CSCC[C@H](NC(=O)[C@@H](NC(=O)[C@H](CC(C)C)NC(=O)[C@@H](NC(=O)[C@H](Cc1c[nH]cn1)NC(=O)CCCCCNC(=O)[C@H](CCCNC(=N)N)NC(=O)[C@H](CCCNC(=N)N)NC(=O)[C@H](CCCNC(=N)N)NC(=O)[C@H](CCC(N)=O)NC(=O)[C@H](CCCNC(=N)N)NC(=O)[C@H](CCCNC(=N)N)NC(=O)[C@H](CCCCN)NC(=O)[C@H](CCCCN)NC(=O)[C@H](CCCNC(=N)N)NC(=O)CNC(=O)[C@@H](N)Cc1ccc(O)cc1)C(C)C)C(C)C)C(=O)N[C@@H](CS)C(=O)N[C@@H](C)C(=O)N[C@H](C(N)=O)[C@@H](C)O		C57BL/6J mice	Alzet osmotic pump, 3 mg/kg, 8 weeks		hematocrit	41.7% and 37.9% and 26.8%
CN1Cc2cc(Cl)ccc2-n2c(nnc2C2CCN(c3cccc([18F])n3)CC2)C1		C57BL/6 mouse male, heart	intravenous, dose not given, 5 min, together with: blocking agent 10 mg/kg		tissue uptake	7.48 ± 2.23 %ID/g
O=C1NC2(CC2)COc2ncc(F)cc2[C@H]2COCCN2c2ccn3ncc1c3n2		Sprague-Dawley rat, male, kidneys	oral, 2.5 mg/kg/day, 4 weeks dosing, end of recovery		organ-to-brain weight ratio	150 ± 14.4%
C/C(=N\OCCCN1CCCCC1)c1ccc(C(F)(F)F)cc1		C57BL/6 mouse, brain	intravenous, 5 mg/kg, 0.5 h		brain concentration	9730 ± 377 ng/g
N#[11C]c1ccc(-c2csc(NN=C3CCCC3)n2)cc1		C57BL/6 mice, male, liver	intravenous, 3 MBq, 5 min		radioactivity uptake	20.3 ± 1.25 %ID/g
C[C@H](O)[C@@H](NC(=O)[C@H]1CCCN1C(=O)[C@@H](CCCCN)NC(=O)[C@@H](CO)NC(=O)[C@@H](Cc1ccc(O)cc1)NC(=O)[C@@H](CC(N)=O)NC(=O)CCOCCOCCOCCNC(=O)CN1CCN(CC(=O)O)CCN(CC(=O)O)CCN(CC(=O)O)CC1)C(=O)N[C@H](CC(=O)O)C(=O)N[C@H](CCCNC(=N)N)C(=O)N[C@H](CCC(N)=O)C(=O)N[C@H](Cc1ccc(O)cc1)C(=O)N[C@H](Cc1c[nH]cn1)C(=O)N[C@H](Cc1ccccc1)C(N)=O [gallium-68 labelled]		BALB/c nude mice U-87 MG tumour, spleen	intravenous, 1.85 MBq, 2 h, radiolabelled		tissue uptake	0.09 ± 0.03 %ID/g
Cc1n[nH]c(C)c1CCCOc1cc(OCCCCCCNCCOCCOCCn2cc(CNc3ccc(C(=O)O)cc3)nn2)cc(C(=O)O)c1		male Sprague Dawley rat, CSF and plasma	subcutaneous, 15 µmol/kg, 10 min		CSF to plasma ratio	1.4 and 1.6
CC(C)[C@@H]1NC(=O)CNC(=O)[C@H](CC(N)=O)NC(=O)[C@H](CCCNC(=N)N)NC(=O)[C@H](Cc2ccc(O)cc2)NC(=O)[C@H](C(C)C)NC(=O)[C@@H](NC(=O)[C@@H](NC(=O)[C@H](CC(N)=O)NC(=O)[C@H](Cc2c[nH]c3ccccc23)NC(=O)[C@H](C)NC(=O)[C@H](Cc2ccccc2)NC(=O)CNC(=O)[C@H](CCCCN)NC(=O)[C@H](Cc2ccccc2)NC(=O)[C@H](Cc2ccccc2)NC(=O)[C@H](CCCCN)NC(=O)OCC2c3ccccc3-c3ccccc32)C(C)C)CSSC[C@@H](C(=O)N[C@@H](Cc2c[nH]cn2)C(=O)N[C@@H](CCCNC(=N)N)C(=O)N[C@@H](CCCNC(=N)N)C(=O)N[C@@H](C)C(=O)N[C@@H](CC(N)=O)C(N)=O)NC(=O)[C@H](C(C)C)NC(=O)[C@H](CCCNC(=N)N)NC1=O		ICR mice, blood	intraperitoneal, 10 mg/kg, day 5		mean platelet volume	6.83 ± 0.19 fL
CC(C)C[C@H](NC(=O)CNC(=O)[C@H](CCC(N)=O)NC(=O)[C@H](CC(C)C)NC(=O)[C@H](CC(C)C)NC(=O)[C@H](CCCNC(=N)N)NC(=O)[C@H](CCC(N)=O)NC(=O)[C@H](CC(C)C)NC(=O)[C@H](CCCNC(=N)N)NC(=O)[C@H](C)NC(=O)CNC(=O)[C@H](CCC(=O)O)NC(=O)[C@H](CCCNC(=N)N)NC(=O)[C@H](CC(C)C)NC(=O)[C@H](CCCNC(=N)N)NC(=O)[C@H](CO)NC(=O)[C@H](CC(C)C)NC(=O)[C@H](CCC(=O)O)NC(=O)[C@H](CO)NC(=O)[C@@H](NC(=O)[C@H](Cc1ccccc1)NC(=O)[C@@H](NC(=O)CNC(=O)[C@H](CC(=O)O)NC(=O)C(C)(C)NC(=O)[C@@H](N)Cc1c[nH]cn1)[C@@H](C)O)[C@@H](C)O)C(=O)N[C@@H](CC(C)C)C(=O)N[C@@H](CCC(N)=O)C(=O)NCC(=O)N[C@@H](CC(C)C)C(=O)N[C@H](C(=O)NCC(=O)N[C@@H](CCCCNC(=O)COCCOCCNC(=O)COCCOCCNC(=O)CC[C@H](NC(=O)CCCCCCCCCCCCCCCCC(=O)O)C(=O)O)C(N)=O)C(C)C		male C57BL/6J mice, diet-induced obese, plasma	subcutaneous, 300 nmol/kg, 2 h post-dose, day 1		plasma concentration	893 nM
N=C(N)NCCC[C@@H](NC(=O)[C@H](N)Cc1c[nH]c2ccccc12)C(=O)N[C@H](CCCCN)C(=O)N[C@H](Cc1c[nH]c2ccccc12)C(=O)N[C@H](CCCNC(=N)N)C(=O)N[C@H](CCCCN)C(=O)N[C@H](Cc1c[nH]c2ccccc12)C(=O)N[C@H](CCCNC(=N)N)C(=O)N[C@H](CCCCN)C(=O)N[C@H](Cc1c[nH]c2ccccc12)C(=O)N[C@H](CCCNC(=N)N)C(=O)N[C@H](CCCCN)C(N)=O		mouse, serum	30 mg/kg		NGAL level	44.8 ng/mL
CCCCCCCCCCCCCCCC(=O)N[C@@H](CCC(=O)NCCOCCOCCC(=O)NCCOCCOCCC(=O)NCCCC[C@H](NC(=O)[C@H](CC(=O)O)NC(=O)[C@H](CC(C)C)NC(=O)[C@H](Cc1ccc(O)cc1)NC(=O)[C@H](CCCCN)NC(=O)[C@H](CO)NC(=O)[C@H](Cc1ccc(O)cc1)NC(=O)[C@H](CC(=O)O)NC(=O)[C@H](CO)NC(=O)[C@@H](NC(=O)[C@H](Cc1ccccc1)NC(=O)[C@@H](NC(=O)CNC(=O)[C@H](CCC(N)=O)NC(=O)[C@@H](CO)NC(=O)[C@@H](N)Cc1c[nH]cn1)[C@@H](C)O)[C@@H](C)O)C(=O)N[C@@H](CCCNC(=N)N)C(=O)N[C@@H](CCCNC(=N)N)C(=O)N[C@@H](C)C(=O)N[C@@H](CCC(N)=O)C(=O)N[C@@H](CC(=O)O)C(=O)N[C@@H](Cc1ccccc1)C(=O)N[C@H](C(=O)N[C@@H](CCC(N)=O)C(=O)N[C@@H](Cc1c[nH]c2ccccc12)C(=O)N[C@@H](CC(C)C)C(=O)N[C@@H](CC(C)C)C(=O)N[C@@H](CC(N)=O)C(=O)N[C@H](C(=O)NCC(=O)NCC(=O)N1CCC[C@H]1C(=O)N[C@@H](CO)C(=O)N[C@@H](CO)C(=O)NCC(=O)N[C@@H](C)C(=O)N1CCC[C@H]1C(=O)N1CCC[C@H]1C(=O)N1CCC[C@H]1C(=O)N[C@@H](CO)C(N)=O)[C@@H](C)O)C(C)C)C(=O)O		rhesus monkey, male, plasma	subcutaneous, 300 µg/kg, day 28, toxicokinetics, median		Tmax	2 h
CC[C@H](C)[C@H](NC(=O)[C@H](CCCCN)NC(=O)CNC(=O)[C@H](CC(C)C)NC(=O)[C@H](Cc1ccccc1)NC(=O)[C@H](CCCCN)NC(=O)[C@H](CO)NC(=O)[C@H](Cc1ccccc1)NC(=O)[C@H](Cc1c[nH]c2ccccc12)NC(=O)[C@H](CCC(N)=O)NC(=O)[C@@H](NC(=O)[C@H](Cc1ccccc1)NC(=O)CCCCCNC(=O)CN1CCN(CC(=O)O)CCN(CC(=O)O)CCN(CC(=O)O)CC1)C(C)C)C(=O)N[C@@H](CCC(=O)O)C(=O)N1CCC[C@H]1C(=O)N[C@H](CC(=O)O)C(=O)N[C@H](C(=O)N[C@@H](CO)C(=O)N[C@@H](CCC(N)=O)C(=O)N[C@H](C(=O)N[C@@H](CCC(N)=O)C(=O)N[C@@H](CC(=O)O)C(=O)N1CCC[C@H]1C(=O)N[C@@H](CC(N)=O)C(=O)N[C@@H](CC(=O)O)C(=O)N[C@@H](CCC(N)=O)C(=O)N[C@@H](Cc1ccc(O)cc1)C(=O)N[C@@H](CCC(=O)O)C(=O)N1CCC[C@H]1C(=O)N[C@@H](Cc1ccccc1)C(=O)O)C(C)C)C(C)C [copper-64 labelled]		female mice, EMT6 tumour-bearing, tumor	2 h, uncleavable control tracer, checkpoint inhibitor-treated		tissue uptake	1.35 ± 0.21 %ID/g

Excerpt of the above:
SMILES	test	test system	setting	how to read	measurement	result
N#[11C]c1ccc(-c2csc(NN=C3CCCC3)n2)cc1		C57BL/6 mice, male, liver	intravenous, 3 MBq, 5 min		radioactivity uptake	20.3 ± 1.25 %ID/g
C[C@H](O)[C@@H](NC(=O)[C@H]1CCCN1C(=O)[C@@H](CCCCN)NC(=O)[C@@H](CO)NC(=O)[C@@H](Cc1ccc(O)cc1)NC(=O)[C@@H](CC(N)=O)NC(=O)CCOCCOCCOCCNC(=O)CN1CCN(CC(=O)O)CCN(CC(=O)O)CCN(CC(=O)O)CC1)C(=O)N[C@H](CC(=O)O)C(=O)N[C@H](CCCNC(=N)N)C(=O)N[C@H](CCC(N)=O)C(=O)N[C@H](Cc1ccc(O)cc1)C(=O)N[C@H](Cc1c[nH]cn1)C(=O)N[C@H](Cc1ccccc1)C(N)=O [gallium-68 labelled]		BALB/c nude mice U-87 MG tumour, spleen	intravenous, 1.85 MBq, 2 h, radiolabelled		tissue uptake	0.09 ± 0.03 %ID/g
